Published values gathered from unrelated publications.
Protocols differ between the studies behind these lines. Numbers after ± are the reported error.

COc1cc2ncnc(Oc3cccc(N[11C](=O)Nc4cc(C(C)(C)C(F)(F)F)on4)c3)c2cc1OC  intact fraction (female Balb/c nude mice, plasma; intravenous, 30 min; relative to: radioactivity): 12.2 ± 0.45%
CSCC[C@@H]1NC(=O)[C@@H]2CSSC[C@H](NC(=O)[C@H](CO)NC(=O)[C@H](C)N)C(=O)N[C@@H](CCCNC(=N)N)C(=O)N[C@@H]([C@@H](C)O)C(=O)N3CCC[C@H]3C(=O)N[C@@H](CCCCN)C(=O)N[C@@H](CC(=O)O)C(=O)N[C@H]3CSSC[C@H](NC(=O)[C@H](CCCCN)NC(=O)[C@H](CCCNC(=N)N)NC(=O)[C@H](CC(N)=O)NC1=O)C(=O)N[C@@H](CCCCN)C(=O)N[C@H]1CSSC[C@H](NC(=O)[C@@H]4CCCN4C(=O)[C@H](CC(=O)O)NC(=O)[C@H](C)NC3=O)C(=O)N[C@@H](C)C(=O)N[C@@H](CCCCN)C(=O)N[C@@H](CCC(=O)O)C(=O)N[C@@H]([C@@H](C)O)C(=O)NCC(=O)N[C@@H](CSSC[C@@H](C(N)=O)NC(=O)[C@H](CCCNC(=N)N)NC(=O)[C@H](CC(N)=O)NC1=O)C(=O)N1CCC[C@H]1C(=O)N[C@@H](Cc1ccc(O)cc1)C(=O)NCC(=O)N[C@@H](CCCCN)C(=O)N2  LDH (DA rat, pristane-induced arthritis, serum; subcutaneous, 0.1 mg/kg every other day, end of 21-day trial): 640 U/L
[11CH3]n1c(=O)n(CCCO)c(=O)c2c1nc(Oc1cccc(OC(F)(F)F)c1)n2Cc1ccc(Cl)cc1  tracer uptake (ex vivo biodistribution; Sprague Dawley rat, spleen; 5 min post injection): 1.26 ± 0.28 %ID/g
CCCCCCCC(=O)N[C@@H](CCCCNS(=O)(=O)c1cccc2c(N(C)C)cccc12)C(=O)N[C@H](C(=O)N[C@@H](CCN)C(=O)N[C@H]1CCNC(=O)[C@H]([C@@H](C)O)NC(=O)[C@H](CCN)NC(=O)[C@H](CCN)NC(=O)[C@H](CC(C)C)NC(=O)[C@@H](Cc2ccccc2)NC(=O)[C@H](CCN)NC1=O)[C@@H](C)O  emission maximum (fluorescence; whole bacterial cells; pH 7.0): ~500 nm
[2H]C([2H])([2H])C([2H])([2H])C([2H])([2H])OC(C(=O)OC1CCNCC1)(c1ccccc1)c1ccccc1  adverse events (refers to: diarrhea; healthy Japanese male; oral, 18 mg, 16 days, multiple ascending dose): 57.1%
CC(C)C[C@@H](N)C(=O)NCC(=O)N[C@H](C)C(=O)N[C@H](CO)C(=O)N[C@H](Cc1c[nH]c2ccccc12)C(=O)N[C@H](Cc1c[nH]cn1)C(=O)N[C@H](CCCNC(=N)N)C(=O)N1CCC[C@@H]1C(=O)N[C@H](CC(=O)O)C(=O)N[C@H](CCCCN)C(=O)N[C@H](CS)C(=O)N[C@H](CS)C(=O)N[C@H](CC(C)C)C(=O)NCC(=O)N[C@H](Cc1ccc(O)cc1)C(=O)N[C@H](CCC(N)=O)C(=O)N[C@H](CCCCN)C(=O)N[C@H](CCCNC(=N)N)C(=O)N1CCC[C@@H]1C(=O)N[C@H](CC(C)C)C(=O)N1CCC[C@@H]1C(N)=O  measured concentration (LC-MS/MS; rat plasma; 500 ng/mL, 12 h, 25 °C, room temperature before extraction): 507 ± 17 ng/mL
COC(=O)C[C@](O)(CCCC(C)(C)OC(C)=O)C(=O)O[C@@H]1C(OC)=C[C@]23CCCN2CCc2cc4c(cc2[C@H]13)OCO4  tissue concentration (CD1 mouse, kidney; subcutaneous, 1 mg/kg, 8 h, below quantification limit 1.00 ng/mL): not detected
CC(C)C[C@@H](NC(=O)[C@@H](Cc1ccccc1)NC(=O)[C@H](N)Cc1ccccc1)C(=O)N[C@H](CCCCN)C(=O)N1CCC(N)(C(=O)O)CC1  AUC(0-t) (human, plasma; intravenous, 5 µg/kg): 94 ng·h/mL
COc1cc(NC(=O)C(=O)c2c(C)n(Cc3ccc(Cl)cc3)c3ccc(C)cc23)ccn1  AUC (male cynomolgus monkey, plasma; intravenous, 1 mg/kg): 2140 ng·h/mL
CCCCCCCC(=O)SCC/C=C/[C@@H]1CC(=O)NCc2nc(cs2)C2=N[C@@](C)(CS2)C(=O)N[C@@H](C(C)C)C(=O)N1  mean residence time (female NIH Swiss mice; intravenous bolus, 5 mg/kg, two-compartment model): 108 min
CC[C@@H]1CN2CCc3c([nH]c4cccc(OC)c34)[C@@H]2C[C@@H]1/C(=C\OC)C(=O)OC  brain concentration (129S1 mouse, brain; subcutaneous, 140 mg/kg, 15 min): 16.6 ± 2.7 µM
CC(C)C[C@H](NC(=O)[C@H](Cc1ccc(O)cc1)NC(=O)[C@H](Cc1c[nH]cn1)NC(=O)[C@H](CC(=O)O)NC(=O)[C@@H](NC(=O)[C@H](C)NC(=O)[C@H](CC(C)C)NC(=O)CNC(=O)CNC(=O)[C@@H](NC(=O)[C@@H](NC(=O)[C@H](CCCCN)NC(=O)CNC(=O)[C@@H](NC(=O)[C@H](CCCCN)NC(=O)[C@H](CCCCN)NC(=O)[C@H](C)NC(=O)[C@H](CCCNC(=N)N)NC(=O)[C@H](CC(N)=O)NC(=O)[C@H](Cc1ccccc1)NC(=O)[C@H](Cc1c[nH]c2ccccc12)NC(=O)[C@H](CCCCN)NC(=O)[C@H](CCCCN)NC(=O)[C@H](Cc1c[nH]c2ccccc12)NC(=O)CN)C(C)C)[C@@H](C)O)C(C)C)C(C)C)C(N)=O  acute toxic concentration (zebrafish embryos; 1 h, 4, 28, 52 hpf): 25 µg/mL
CCCC[C@H]1C(=O)N(C)[C@@H](CCCC)C(=O)N[C@@H](CCCNC(=O)CN2CCN(CC(=O)O)CCN(CC(=O)O)CCN(CC(=O)O)CC2)C(=O)N[C@H](C(=O)NCC(N)=O)CSCC(=O)N[C@@H](Cc2ccc(O)cc2)C(=O)N(C)[C@@H](C)C(=O)N[C@@H](CC(N)=O)C(=O)N2CCC[C@H]2C(=O)N[C@@H](Cc2c[nH]cn2)C(=O)N[C@@H](CC(C)C)C(=O)N(C)CC(=O)N[C@@H](Cc2c[nH]c3ccccc23)C(=O)N[C@@H](CO)C(=O)N[C@@H](Cc2c[nH]c3ccccc23)C(=O)N1C [gallium-68 labelled]  tissue-to-tissue ratio (NOD/SCID mice, CHO-hPD-L1 xenograft, tumour over muscle; iv, dose not given, 60 min; relative to: tumour over muscle): 10.3 ± 1.66
COc1cc(-c2nc3ccccc3s2)cc(CN(Cc2ccccn2)Cc2ccccn2)c1O  viability (Alamar Blue; Neuro2A, mouse; 2 µM, 40 h): 72 ± 4%
COc1cc2c3c(c4ccc(O)c(OC)c4c2cc1OC)C(O)C1CCCN1C3 (stereo not shown)  CC50 (swine cells; 24 (unit not given)): 59.9 ± 2.79 µM
CC(C)[C@H](NC(=O)CNC(=O)[C@H](CCC(N)=O)NC(=O)[C@H](C)N)C(=O)O  subjects with adverse events (human; continuous infusion, dose not given): 44%
CCCCCCCCCCCCC(=O)O.O=C1CCCC2C3CCCN4CCCC(CN12)C34 (stereo not shown)  critical micelle concentration (pyrene fluorescence; water; concentration not given, 298.15 K): 0.00337 mol/kg
C[C@@H]1CC[C@H]2[C@@H](C)CO[C@@H]3O[C@@]4(C)CC[C@@H]1[C@]32OO4  measured concentration (refers to: compound; rat, plasma; 50.0 ng/mL spiked, three freeze/thaw cycles): 56.1 ± 2.05 ng/mL
Cc1ccc(OCC(=O)N(Cc2cccs2)c2ccn[nH]2)cc1  fetal weight (Crl:CD(SD) rat, bred female; oral, 300 mg/kg/day, mean per litter, developmental toxicity): 5.6 g
C[C@H]1N=C(c2ccccc2F)c2cc(Br)ccc2-n2cnc(C(=O)OC3O[C@H](C(=O)O)[C@@H](O)[C@H](O)[C@H]3O)c21 (stereo partly shown)  excretion in urine and feces (Swiss Webster mouse; oral, 750 µg of parent drug, 0 to 48 h; relative to: dose): 6.4 ± 1.1%
CCNc1cc2[o+]c3cc(NCC)c(C)cc3c(-c3ccccc3C(=O)OCCOCC[18F])c2cc1C  tissue uptake (rat, muscle; 15 min): 0.1 ± 0.02 %ID/g
CC[C@H](C)C(=O)N1CCC(NC(=O)Nc2ccc(OC(F)(F)F)c(F)c2)CC1  subjects with headache TEAE (healthy volunteers; oral, 2 mg single dose): 16.7%

Some of these lines once more:
Cc1ccc(OCC(=O)N(Cc2cccs2)c2ccn[nH]2)cc1  fetal weight (Crl:CD(SD) rat, bred female; oral, 300 mg/kg/day, mean per litter, developmental toxicity): 5.6 g
CCNc1cc2[o+]c3cc(NCC)c(C)cc3c(-c3ccccc3C(=O)OCCOCC[18F])c2cc1C  tissue uptake (rat, muscle; 15 min): 0.1 ± 0.02 %ID/g
[11CH3]n1c(=O)n(CCCO)c(=O)c2c1nc(Oc1cccc(OC(F)(F)F)c1)n2Cc1ccc(Cl)cc1  tracer uptake (ex vivo biodistribution; Sprague Dawley rat, spleen; 5 min post injection): 1.26 ± 0.28 %ID/g
